Assay results from different studies.
Lines come from different studies, so protocols differ. “And” joins repeats or separate records; there may be more than shown. ± marks the error that the study gave.

C=CCn1c(=O)c2cnc(Nc3ccc(N4CCN(C)CC4)cc3)nc2n1-c1ccc2c(n1)[C@@](O)(CC)CC2
tumour volume (BALB/c nude mouse, NCI-H1975 xenograft; oral, 80 mg/kg once daily ×18, day 18; relative to: vehicle): 46.6%

COc1ccccc1[C@H](Cn1c(=O)n(C(C)(C)C(=O)O)c(=O)c2c(C)c(-c3ncco3)sc21)OC1CCOCC1
fractional hepatic DNL ([1-13C]acetate infusion, isotopomer analysis; overweight or obese healthy men, plasma VLDL-TG palmitate; oral, 50 mg single dose, 2 h post-dose, together with: oral fructose): 5.34 % new palmitate

CO[C@@H](C(=O)N1Cc2n[nH]c(NC(=O)c3ccc(N4CCN(C)CC4)cc3)c2C1)c1ccccc1
discontinuation due to disease progression (patients with advanced solid tumours; dose not given, without G-CSF): 73%

CN(CCOc1ccc(CC2SC(=O)NC2=O)cc1)c1ccccn1 (stereo not drawn)
exchange rate constant (deuterium-hydrogen exchange; aqueous phosphate buffer; pH 7.4, 37 °C): -0.117 h⁻¹

COc1cc(Nc2ncc3c(n2)-c2ccc(Cl)cc2C(c2c(F)cccc2OC)=NC3)ccc1C(=O)O
relative tumour volume T/C (mouse, NB-EBc1 neuroblastoma xenograft; oral, 2.6 mg/kg, day 7; relative to: vehicle): 2.76

CO[C@H]1CC[C@H](N2C(=O)CNc3ncc(-c4ccc(C(C)(C)O)nc4)nc32)CC1
pS6RP change from baseline (flow cytometry; stimulated B cells, human, blood; 45 mg single dose, 3 h, mean; relative to: baseline): -74.8%

CCCCc1nc2c(N)nc3ccccc3c2n1Cc1ccc(CN)cc1
concentration (IL-6 release, ELISA; PBMC, human; 24 h): ~10 µM

C[C@H]1O[C@@H](O[C@H]2CC[C@@]3(C)[C@@H](CC[C@]4(C)[C@@H]3C=C[C@]35OC[C@@]6(CCC(C)(C)C[C@H]63)[C@@H](O)C[C@]54C)[C@]2(C)CO)[C@H](O)[C@@H](O[C@@H]2O[C@H](CO)[C@@H](O)[C@H](O)[C@H]2O)[C@H]1O
triglyceride level (chronic-plus-binge ethanol mice, plasma; oral, 15 mg/kg/day for 7 d, 168 h): 0.8 mM and 0.744 mM and 0.715 mM and 0.832 mM and 0.686 mM and 0.914 mM

O[C@H]1CCCN[C@@H]1CCCn1cnc2c(Cl)c(Cl)ccc21
maximum reduction (ELISA, item: Pro-C3; healthy human volunteers, serum; intraduodenal, 50 mg twice daily, day 14, multiple ascending dose): 9.22%

CC(c1cc2ccccc2s1)N(O)C(N)=O (stereo not drawn)
5-HEPE level (human blood; 3 µM, together with: A23187): 36 ± 14 pg/mL

CC1(C)CCC(c2ccc(Cl)cc2)=C(CN2CCN(c3ccc(C(=O)NS(=O)(=O)c4ccc(N[C@H](CCN5CCOCC5)CSc5ccccc5)c(S(=O)(=O)C(F)(F)F)c4)cc3)CC2)C1
EC50 (cell killing, flow cytometry PI exclusion; canine blood CD21+ B cells, dog 39; 24 h): 945 nM

CCCCCN1C[C@H](O)[C@@H](O)[C@H](O)[C@@H]1CO
decreased sphingolipid species (Hexb-/- mouse, plasma; 300 mg/kg/day, unit not given; relative to: 30 mg/kg/day): 22

CCN1CCN(Cc2ccc(Nc3ncc(F)c(-c4cc(F)c5nc6n(c5c4)[C@H](C)CCC6)n3)nc2)CC1
not evaluable response (human advanced solid tumours; 300 mg, phase Ia monotherapy RECIST 1.1): 0%

COc1cc(CCc2cc(OC)c(O)c(OC)c2)ccc1O
lipid accumulation (Oil Red O; 3T3-L1, mouse; 5 µM, day 8; relative to: vehicle): 87.2 ± 3.11%

N#Cc1ccc2c(c1)[C@H]1CCCN(C(=O)c3ccc4[nH]cnc4c3)[C@H]1C2
plasma level (item: cortisol; human, Phase II trial; oral, 20 mg once daily, last treatment, HPA axis, mean): 315 nmol/L

CN[C@@H]1COc2c(S(=O)(=O)NC(=O)Nc3c4c(cc5c3CCC5)CCC4)cnn2C1
inhibition (item: IL-18; human participants, whole blood ex vivo; 450 mg single dose, 8 h, IL-18, circulating, adjusted for, together with: LPS/ATP; relative to: baseline): 134%

N#Cc1ccn2c(-c3ccncc3)c(-c3ccc(F)cc3)nc2c1
log2 fold change (kinase binding, competitor, MIB/MS competition, item: GIN4; Candida albicans cell lysate; 1 µM; relative to: DMSO): 0.0196

O=C(O)CNC(=O)Cc1ccccc1
sarcomere length (ventricular cardiomyocytes, C57BL/6 mouse; dose not given, 0.256 s): 1.66 µm

Repeated from above:
CO[C@H]1CC[C@H](N2C(=O)CNc3ncc(-c4ccc(C(C)(C)O)nc4)nc32)CC1
pS6RP change from baseline (flow cytometry; stimulated B cells, human, blood; 45 mg single dose, 3 h, mean; relative to: baseline): -74.8%
